Published values collected from several papers.
Every numbered part comes from another study and shows a few of its results, in no order. Substitutions count along the parent as printed.

Series 1
Target: Microphthalmia-associated transcription factor, full length (MITF, Homo sapiens, UniProt O75030-10, residues 1-413)
Technique: protein-binding microarray
Molecule type: double-stranded DNA, one strand shown
Matrix: in vitro
Concentration: not given
Notes: k-mer, scored over probes, only values ≥0.25
Reading: higher = stronger binding
Target sequence (chain): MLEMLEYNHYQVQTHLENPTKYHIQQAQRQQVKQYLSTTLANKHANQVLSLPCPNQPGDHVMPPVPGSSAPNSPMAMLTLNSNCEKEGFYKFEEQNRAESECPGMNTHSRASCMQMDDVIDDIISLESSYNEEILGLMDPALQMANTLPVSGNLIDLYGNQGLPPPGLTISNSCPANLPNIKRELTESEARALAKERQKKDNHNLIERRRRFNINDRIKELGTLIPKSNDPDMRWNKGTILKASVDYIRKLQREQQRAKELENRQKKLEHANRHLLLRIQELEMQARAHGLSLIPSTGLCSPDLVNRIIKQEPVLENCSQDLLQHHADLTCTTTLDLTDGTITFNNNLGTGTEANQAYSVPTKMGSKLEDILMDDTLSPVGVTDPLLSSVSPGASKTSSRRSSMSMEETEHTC
Sequence	E-score
ACGTGGC	0.286
ACACGTG	0.485
ACATCAC	0.32
CATGGGA	0.326
TCACGCA	0.366
ACGTGTG	0.388
AACCCCA	0.316
GCGTGAC	0.47
AAATCAC	0.309
TCATGCA	0.342
GAGTCAC	0.311

Series 2
Target: Fragile X messenger ribonucleoprotein 1, C-terminal low-complexity region (Fmr1, Mus musculus, UniProt P35922)
Technique: RNA Bind-n-Seq
Molecule type: RNA
Matrix: in vitro
Concentration: 200 nM
Notes: whole 134-nt RNA, ends assumed
Together with: 150 mM LiCl
Reference: input library
Reading: higher = stronger binding
Library: 7-deaza-guanosine replaces G
Sequence	log2 enrichment
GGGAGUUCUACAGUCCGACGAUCUUGCUUCAAGAAGAUCCCUAAGCUGUAGAACAUUUUAACGUUGAUGCCACAACGCAGAUUGAUGCCUUGUAGAUGGAGCUUGCAGAUGGAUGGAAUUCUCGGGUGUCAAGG	1.35
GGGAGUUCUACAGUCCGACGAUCACCAUGCAGGUGGGCAUCUUUGGGAAGUGGGGCAAGGGGGGGAUAGGGAGGGGGGUAACACUUUGGGAACAGGUGGUCCCAGGUCGGUUCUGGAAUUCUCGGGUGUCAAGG	1.49
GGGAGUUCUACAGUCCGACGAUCCCUCAAGUCCUGUGCUACACAUCGUAUGUACCGAAUCGGCGGGCGGGCGGGGAAAGUAUUAUGUUACGCCGUUCGGAUCUGCACUUCCAGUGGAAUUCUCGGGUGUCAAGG	0.613
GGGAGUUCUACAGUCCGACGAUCCUCAAGUCCUGUGCUACACAUCGUAUGUACCGAAUCGGGGUGGUGGGGUGGGGAAAGUAUUAUGUUACGCCGUUCGGAUCUGCACUUCCAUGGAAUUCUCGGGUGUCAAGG	-0.938
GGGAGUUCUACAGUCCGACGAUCCAAGUCCUGUGCUACACAUCGUAUGUACCGAAUCGGGGCCCGGGGCCCGGCCCGGAAAGUAUUAUGUUACGCCGUUCGGAUCUGCACUUCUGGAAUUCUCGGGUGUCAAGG	-1.66
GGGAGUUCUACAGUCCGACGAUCACCAUGCAGGUGGGCAUCUUUGGGAAGUGGGGCAAGGGGGGGAUAGGGAGGGGGGUAACACUUUGGGAACAGCUGGUCCCAGGUCGUUUCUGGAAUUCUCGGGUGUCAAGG	1.52
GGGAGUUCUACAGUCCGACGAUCAGUCCUGUGCUACACAUCGUAUGUACCGAAUCGGGGUUUGGGGUUUUUGGGGUGGGGAAAGUAUUAUGUUACGCCGUUCGGAUCUGCACUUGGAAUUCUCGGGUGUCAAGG	-0.443
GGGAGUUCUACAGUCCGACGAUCUCCUGUGCUACACAUCGUAUGUACCGAAUCGGGUUUGGGAAAAAAAGGGAAAAAAAGGGAAAGUAUUAUGUUACGCCGUUCGGAUCUGCAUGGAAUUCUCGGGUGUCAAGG	0.215
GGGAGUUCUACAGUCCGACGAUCUCAAGUCCUGUGCUACACAUCGUAUGUACCGAAUCGGAAAGGUUUUUGGAAAGGAAAGUAUUAUGUUACGCCGUUCGGAUCUGCACUUCCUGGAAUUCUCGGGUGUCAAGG	-0.966
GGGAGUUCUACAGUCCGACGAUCUAACUUUAGAGGAGGAUCUGAUGCAUAUGGCAGUGGACGUGGAUUUGGGGAUGGCUAUAAUGGGUAUGGAGGAGGACCUGGAGGUGGCAAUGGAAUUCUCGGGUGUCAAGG	0.777

Series 3
Target: CCND2, cyclin fold, Cln2 fusion (human)
Technique: yeast growth competition, sequencing
Matrix: yeast
Notes: weak parent motif
Reference: not given
Reading: higher = stronger binding
Starting sequence: SAMHD1 docking peptide (human); ASKSRVQLFKDDP
Substitution	normalised enrichment score
S4Y	0.0223
Q7G	0.458
L8I	-0.153
Q7E	0.0198
R5P	0.0649
Q7S	-0.0308

Mixed results
Substance	target	assay	system	setting	scale	quantity	result
PhoQ, residues 284 288 289 292 302 303 SVTLVV	PhoP, residues 12 14 15 18 19 YHFSH (Escherichia coli, UniProt P23836)	Sort-seq, item: YFP reporter	E. coli	PhoQ-PhoP variant library, together with: 10 µM Mg2+	reference: high Mg2+ state, higher = stronger signaling	fold induction	5.3

A few entries again (series 3):
Substitution	normalised enrichment score
S4Y	0.0223
Q7G	0.458
L8I	-0.153
Q7E	0.0198
